# Experimental data from different studies.
# Parts stem from different laboratories: compare values within a part only.

# Study 1
# Target: Interferon regulatory factor 7, full length, phosphomimetic (IRF7, Homo sapiens, UniProt Q92985, residues 1-503, S471D/S472D/S475D/S476D/S477D/S483D/S484D/S487D)
# Technique: protein-binding microarray
# Molecule type: double-stranded DNA, one strand shown
# Medium: in vitro
# Concentration: 2200 nM top
# Notes: 60-bp whole probe
# With: salmon DNA 0.4 mg/ml
# Reference: random background probes
# Reading: higher = stronger binding
# All sequences stand within: GCCTAGCAC … GTCTTGATTCGCTTGACGCTGCTG
# Construct (chain): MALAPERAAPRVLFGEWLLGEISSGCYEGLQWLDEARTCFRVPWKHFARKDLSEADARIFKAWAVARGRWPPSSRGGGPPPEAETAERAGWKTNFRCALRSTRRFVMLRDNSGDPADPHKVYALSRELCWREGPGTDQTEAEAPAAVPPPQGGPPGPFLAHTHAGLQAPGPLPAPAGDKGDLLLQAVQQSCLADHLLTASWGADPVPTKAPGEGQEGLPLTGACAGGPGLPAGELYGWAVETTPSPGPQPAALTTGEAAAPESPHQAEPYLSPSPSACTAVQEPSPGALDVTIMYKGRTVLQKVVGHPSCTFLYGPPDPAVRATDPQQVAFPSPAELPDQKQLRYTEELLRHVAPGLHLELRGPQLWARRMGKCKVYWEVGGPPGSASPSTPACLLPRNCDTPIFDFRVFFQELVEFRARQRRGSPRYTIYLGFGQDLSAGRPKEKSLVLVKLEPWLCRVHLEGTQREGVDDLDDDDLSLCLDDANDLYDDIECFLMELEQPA
Oligonucleotide,fitted relative affinity
ATAGATATCGGGTATCGATTAGTGCTA,0.255 z-score
GAAGGTTTCGGGTTTCGGGACGTGCTA,9.67 z-score
GACGGTTTCGCTATCGGGACGTGCTAG,5.84 z-score
TTTAAATTCTAATTAGAATTGTGCTAG,-0.641 z-score
TTCCTTTGCTTTCTCCCAAGGTGCTAG,3.01 z-score
GACTGTTTCGGGTATCGGGACGTGCTA,4.64 z-score
CACCATCTAGTTCTGCTTTGGTGCTAG,2.07 z-score
GGGATTTTGTCCTCCCCTCCCGTGCTA,-0.0677 z-score
TTAGGTAGCCTTATCCTTTAGTGCTAG,0.0167 z-score
TTAGGACTGCTACCGCTTTAGTGCTAG,0.332 z-score
TCATGTTTCCATCTCTCACTGTGCTAG,3.56 z-score
GACGGTATCGACTTTCGGTACGTGCTA,3.92 z-score
TTAGGTTTCCTTATCCATTAGTGCTAG,2.02 z-score
AGGTGGGAGGGGACAGTGGTGTGCTAG,0.231 z-score
CGACATTTTTATTTGCCTTAGTGCTAG,1.1 z-score
GACGGTATGGACTATCGGGACGTGCTA,-0.246 z-score
TCAAATTGTCCTTTCACACTGTGCTAG,1.54 z-score

# Study 2
# Target: Histone acetyltransferase KAT6A, winged helix 1, GST fusion (KAT6A, Homo sapiens, UniProt Q92794, residues 1-85)
# Technique: protein binding microarray
# Molecule type: double-stranded DNA, one strand shown
# Medium: in vitro
# Concentration: not given
# Notes: 8-mer, flanks averaged, mean of 2 arrays, mostly near background
# Reference: not given
# Reading: higher = stronger binding
# Residues (chain): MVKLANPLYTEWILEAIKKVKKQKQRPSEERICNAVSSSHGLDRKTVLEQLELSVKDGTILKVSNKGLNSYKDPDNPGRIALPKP
Oligonucleotide,E-score
GTCATGAC,0.0667
ATTGGGCC,-0.0493
CGTGGGCC,0.213
CCCAAAGC,-0.0391
GGAGCTGA,-0.203
AACGCCGA,0.369
CAGGATGG,-0.0433
ATTATAGA,-0.002
CGATGCCC,0.0759
CATTGCCG,0.285
CCTAGCGA,-0.202
GATACGAC,-0.0293
AAGGATAC,-0.134
TCCTCGAA,-0.125
AATCGCCG,0.393
ATAAGAAA,-0.082
CACCGAAC,0.0136
AATGCTAC,-0.127
GAATTCTA,-0.104
GCATGGGA,-0.178
CATTATAA,-0.0693
AGCGTATA,0.11
CTCATTTC,-0.201
AGGGTAGG,-0.0303

# Study 3
# Target: Centromere-binding protein 1, full length, His-tagged (CBF1, Saccharomyces cerevisiae, UniProt P17106, residues 1-351)
# Sequence of UniProt P17106 (whole entry, looked up): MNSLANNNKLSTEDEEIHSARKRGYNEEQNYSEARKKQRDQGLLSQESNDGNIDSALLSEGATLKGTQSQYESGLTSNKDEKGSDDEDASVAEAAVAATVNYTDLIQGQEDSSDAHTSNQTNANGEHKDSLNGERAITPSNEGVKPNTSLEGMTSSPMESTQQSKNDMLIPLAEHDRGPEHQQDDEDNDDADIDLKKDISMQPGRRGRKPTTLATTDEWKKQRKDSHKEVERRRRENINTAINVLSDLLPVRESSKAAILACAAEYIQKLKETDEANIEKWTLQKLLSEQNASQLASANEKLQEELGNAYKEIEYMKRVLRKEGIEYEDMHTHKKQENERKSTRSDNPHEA
# Technique: competition protein-binding microarray
# Molecule type: double-stranded DNA, one strand shown
# Medium: in vitro
# Concentration: 2 µM
# Notes: whole 60-bp probe, lowest competitor level
# With: Pho4 competitor, 0.05 µM
# Reading: higher = stronger binding
# All sequences stand within: … GTCTTGATTCGCTTGACGCTGCTG
Oligonucleotide,fluorescence intensity [a.u.]
GCAGTGCCATCCCGTCACATGACAACACCACTTTAA,1380
GTCTTGTCTCATTGTACGGTGGGTGTCCCCACTTCA,87.7
ATAAAAGAATGCCATCACGTGTTTCCAATCCATTCG,3400
CTTCTGTAAATTTGATTGGTGGGTGGACGCGCCCCG,99.1
CAGAACTAGATGGCGCTCGTGATTGTGAAAACGGGG,318
CTTCTGTAAATTTTTCACGTGGGCTGACGCGCCCCG,749
CTCTTTCAGATTCGTCACGATTTTATGAAAGAAATA,157
TATTTTCTCAGCCGTCACGTGCGATAAAAAAGTCAA,7780
TTGGTAGAGGCGGTTCCCGTGGTGATGCTCGCGGTG,77.1
CTAACGAAGGTTTGATTGGTGGGTGACAAGCCAAGT,94.1
TCTGATGTGTAAACTCATGTGGTGCACTGGTGTTGT,79.2
GAATCCTATGCTTCACACATGAGGACAGGTTACGAA,68.7
GTCAAGAACGGTGTCCACATGGTCTTCGCTTCTTTC,107
CAGAGGAACGAGATAAACGTGCGATCCCTTCAATAA,73.9
CTTTCCCGATCTTGTCACTTAACTTTAGCACATTTG,80.8
ACCTTCTTTGGCGTTGTTGTGACGGAGACTTCCTGT,65.2
CTGCATAGGTGGTTACACGGGGATGGTTTTTCTCTT,97.1
CGAGCCTCTGAAAAGCACGCTCTAATAATTTTACAT,85
CACTTCATACATGGCTACGTGGGTAACAAGGCCGCT,65.8
CATACCCAACCTTTTCACGTGAGCTAAGATATTTGT,1190
GAAGGAGAGACTGTTCACATGCCTGAGGAAGATGAC,135
CCATTGGTGTACCGTCACGTGCTAAGGTTCTGCTGT,5140
AAAGCGGTAATTTGGCGTGTGGGTGCAGATATCTAT,84.9
TATTGTGTCGCCTCGACCGTGATGGTTAGTTCCTAT,80.9
TGCGCAACAACTTGTCACGCAACTTTATGTCTAGAA,135

# Study 4
# Target: RNA binding protein fox-1 homolog 2, RRM domain, GST-SBP tag (RBFOX2, Homo sapiens, UniProt O43251-10, residues 100-194)
# Technique: RNA Bind-n-Seq
# Molecule type: RNA
# Medium: in vitro
# Concentration: 365 nM
# Notes: natural RNA segment, single round, ends assumed
# Reference: no-protein control
# Reading: higher = stronger binding
# All sequences stand within: GGGAGUUCUACAGUCCGACGAUC … UGGAAUUCUCGGGUGCCAA
# Target sequence (chain): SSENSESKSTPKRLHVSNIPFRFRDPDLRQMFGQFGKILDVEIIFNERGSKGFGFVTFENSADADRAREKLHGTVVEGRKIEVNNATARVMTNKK
Oligonucleotide,RBNS enrichment (R)
AAUACCAACCAGAAAUUGGCAUUUAUAAACCUGUUAAGAGACUUUAAGCAUGCUUCAAGAGGCAGUUGACCCACUGGAAUUUCUAUAAGGCUGGUACCCUUCCCAGAGUU,1.59
CAGCGUUAUGGUGGGAGCCGCUUCCUGUUCUGUGAACCCCAGGCAGGCUUGACUUCCUAUGGUGUUAUUCUGGAACAUGCUGCCACGAGUCCCGGCUUUUGGAGUCCCAG,0.269
AGCUAGAAUCGAGCCAGUAAACAGUCUAAGCCAGAAAAAUAAUUUUCAAAUGCUUUACCUGUAUUUUCAUUCCAGUACUUUUUAUGAUUUUUUAAAUAAAAAUUGUUUUC,0.867
GUGUUGUUGGUCUGCUUGGUGUGUGUGAUCGGGAAGAUAAGCUGGGAGGGGUCUCCUGCUGGGGUCCUGAUGCCUCUGUUUCCAAACAAGGUACAGGUUCAGUCCAGACU,0.662
GUGGAGAGGCCGUGGGAUUAAGCACAAUAGGAGGCGCAGCUCCUGCUUCUACCGUUAGGCGCUGCAGGCUUGAAGUGGCAAGGCCCUGCAUCUCAAGCACUCAGAGCUCU,0.632
UUCGCCAUGUUGGCCAGGCUGGUCUCGAACCCCUGAGCUCAGGUGAUCCACCUGCCUCGGCCUCCCAAAGUGGGAAAUGGGUCAUUUUCAAAGGGGCAACAGUGAUACCA,0.273
UGGCCAGAAAACUGGUGUUGAAGGCUUUUGCUCAUAUAAACAAGUGCCAUUGAGUUUCAAAUGACCAGCAAAUAUAUUUAGAACCCUUCCUGUUUUAUGUCUGUACCUCG,0.421
AGUGGUCAGCAGCUGUUCCUAGCCUGUGAGCCGAAAGCAAAUCAGAAUUUAUAAAUCACAUCUCAUCAAUACUAACAAAUGACAUUUUGAAAGGAAAGAUUGGGUUGCAU,0.25
CUUCUCCUUGUGAAGCCAUAAGCCUGACUUCCCCUCAGCCCUGCUCCCUCAUUUUCUCUCAUCAUGUAGGAAAGAGUGGGACCCCCUCCCAACCCCUUUCUGUUAAAGCC,0.625
AUAUCUAUGGUAUAUUAAAAGGAGCAGUCAUCAUAUACUACUGCAUUUCCACUGAAGAGCCAAAAGGCAUUUAAUAUAUAUGUUCAUGAAACAUACCUUUUUCCUCUUUA,0.515
GAUGUGUCUGUCUUUGUCACGGUGGACAGAGGGUGACAUCAUAGGAGCAGCUCGCUGGCCAGAAGGGGAUGGGGGCAUCCCUGUGCCUCACUCAGCUCCUGCUGCUCUUA,0.51
UGCUGAUCACCCUCCUCCCAAAAAGCAAGAGCUUGUUUAUGGCUGAGGAAUCGGCGGAUUGUCUGAAUGACACAUAUACAGAGCCCCCACGGAUUUCUGCACACUCUGGG,0.253

# Repeated from above (study 2):
Oligonucleotide,E-score
CCCAAAGC,-0.0391
GGAGCTGA,-0.203
AACGCCGA,0.369
CAGGATGG,-0.0433
ATTATAGA,-0.002
CGATGCCC,0.0759
